Published values from different studies.
Each numbered part is a random draw from the data of one study; scales do not carry over between parts. Positions count from the first letter of the parent shown.

Study 1 — technique: RNA Bind-n-Seq; form: RNA; matrix: in vitro; tested at: 20 nM; setting: 6-mer, flanks averaged, single round; with: 150 mM LiCl; relative to: input library; reading: higher = stronger binding; quantity: 6-mer enrichment (R)
Target: TAR DNA-binding protein 43, full length, His tag (TARDBP, Homo sapiens, UniProt Q13148, residues 1-414)
AUGUGC: 1.13
GUUGCA: 1.02
CAACAU: 0.842
CCGGGU: 0.982
CUAGUU: 0.928
UUCAUG: 0.944
CGUGUA: 1.09
UAUUGC: 0.981
UAUGUG: 1.61
CCGAAU: 0.879
ACGUGG: 1.02
CGUCUU: 0.941
GCGAGG: 1.15
GAUACG: 0.888
GCUUCA: 0.872
GGGGGG: 1.8
ACGAGC: 0.852
AGGGUA: 1.06
CGCACC: 0.95
UGUGCG: 1.49
CCGCGU: 0.973
AGAGCG: 1

Study 2 — technique: RNA Bind-n-Seq; form: RNA; matrix: in vitro; tested at: 365 nM; relative to: no-protein control; reading: higher = stronger binding; quantity: RBNS enrichment (R)
Target: RNA binding protein fox-1 homolog 2, RRM domain, GST-SBP tag (RBFOX2, Homo sapiens, UniProt O43251-10, residues 100-194)
Setting: natural RNA segment, single round, ends assumed
Constant ends, left off below: GGGAGUUCUACAGUCCGACGAUC … UGGAAUUCUCGGGUGCCAA
Target sequence (chain): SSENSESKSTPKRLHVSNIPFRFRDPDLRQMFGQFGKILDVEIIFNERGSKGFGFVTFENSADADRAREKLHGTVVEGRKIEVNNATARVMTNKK
CUCUUCCAAACCACAUGGGAGACAGUUUCCUUCAUGCCCAAGCCUGAGCUCAGAUCCAGCUUGCAACUAAUCCUUCUAUCAUCUAACAUGCCCUACUUGGAAAGAUCUAA: 0.859
GCCAUGUGCUUUGCAUCUUUCUUAUUUGAUUCUUUUAAAGAAGUGUAGGGAGGAAAACCUGUCAUUUUUGUUGUUUUGCCAGAAUGAAUGACGAUAACUCCUCCUGUUAA: 2.2
UUUGGGGAGUGUGUUUUGUCUGUUCUUCAAUGAAGGAUCAAUCCAGUGUUCUUCAUCAAUGUUAGUUAAUAUCCCAUUGCUUGUGUGGCGCCUUGAGUUGGUGGUAGACU: 6.13
UGCCACCGGCAGGGGGCCUUUGCUUACAGGGUCUGCAUAGGUUGUUAUGGAUUUGUGACUUUGGCAUGCAGAAGACAAGAGAGUGGUUAAGUGGAUCUUAUCAUUACUGU: 0.91
UUACUUCUGAAAUGAAGGGAAAAAAACCACCCCAUCGUUCCCUACUCCUCCCCACCACUUACCCGUUCCCCCUUUACCUAAUCUAGUAGAUUAGCCAUCUUUCAAAUUCA: 0.785
GCACAAUCAGUGUGAAUAAAUUCACUUCAGAAUCUCAAGUCAAGGCCAGGCACGGCGGCUCACGCCUGUAAUCCCAGCACUUUGGGAGGCCGAGACAGGCGGAUCACCUG: 0.332
AAAAACAAAAACAAAAAACUUAAACUCCACUUUGUACCUUAGAUUUUAAAACUGGGUAGAAAUGUAAUAUACAUUGGACCACUUUUUUAAGCCUUAAUGAACAGUGUAUA: 0.485
UAUUGUGUGAUACUUGAAAAGAUAAAAGGGACUGCCAGCCCCUAACUGAAAUCUGAAGCUUUUUAUCGCUUAUUUUUCCUCGCCCUGUCUCCUCCCUUCCACCUUUCUCC: 0.401
GCCACAUACCCUCAUCUGUGCUGUCAGUGUGUCUCUGGUGGGGCAGACUUUGCACUUACUGCAGUGCACCACUUGCACUUUACUCCCUCCGGCUUCUGAGACAGAGCAAG: 0.552
AAACAGGCAGCUCAUAAGAGCCACAGGUCUUUAUGUUGAGUCGCGCACCGAAAAACUAAAAAUAAUGGGCGCUUUGGAGAAGAGUGUGGAGUCAUUCUCAUUGAAUUAUA: 0.532
AAGUGAGGGUAGAACCUUUUGGGACUGGCCUUUGAAGCUCUGGCCAGGGAUGGGGUGGGGGCCAAAAGGACAGAGCCUGGUAUGUCUUCAUAGUCAUUGAGAAUGUGGAG: 0.899
CUGUGGCACCAGCUAGCUGCAGGUGCAGGGGAUGGCGGGAGUGAGGCUGUGUCUGCGGAUGGCUGGGGUCACUUCUCUGCCCAUGGGCUCCCUGCUCCCCCAGUUUUUUU: 0.379

Study 3 — target: CCND3, cyclin fold, Cln2 fusion (human); technique: yeast growth competition, sequencing; matrix: yeast; setting: weak parent motif; relative to: not given; reading: higher = stronger binding; quantity: normalised enrichment score
Parent: BORA docking peptide (human); SSLRRKLFLDGNG
SSARRKLFLDGNG [L3A]: 0.0269
SSLRAKAFLDGNG [R5A L7A]: -0.0202
SALRRKLFLDGNG [S2A]: 0.158
SSLRAKLFLDGNG [R5A]: 0.0832
SSLRKKLFFDGNG [R5K L9F]: 0.662
SSLRRKLFFDGNG [L9F]: 0.299
SSLRRKLFLDGNA [G13A]: 0.121
SSLRRKLFLDGAG [N12A]: 0.165
SSLRRKAFLDGNG [L7A]: 0.11
SSLRRKLLLDGNG [F8L]: 0.395
SSLRRKLFADGNG [L9A]: -0.0255

Study 4 — technique: protein-binding microarray; form: double-stranded DNA, one strand shown; matrix: in vitro; tested at: 940 nM top; setting: 60-bp whole probe; with: salmon DNA 0.4 mg/ml; relative to: random background probes; reading: higher = stronger binding; quantity: fitted relative affinity; constant ends, left off below: GCCTAGCAC … GTCTTGATTCGCTTGACGCTGCTG
Target: Interferon regulatory factor 5, full length, phosphomimetic (IRF5, Homo sapiens, UniProt Q13568-2, residues 1-514, S451D/S453D/S456D/S462D)
GGCGGTCTCCTACTGCTGACGTGCTAG: -0.448 z-score
TTAGGTTCCGGTTTCAGTTAGTGCTAG: 5.49 z-score
GACGGTTTCGGACTGGTGACGTGCTAG: 5.61 z-score
TCAATTTCCATTTTCTAACTGTGCTAG: 1.4 z-score
GCCGATTTCAGTATCGAGACGTGCTAG: 3 z-score
GACGGTATCGACTCTGGGGACGTGCTA: 3.71 z-score
TTAGAACTGAGTTTCGATGAGTGCTAG: 6.24 z-score
TTAGGTATCGGGTCTCGGTTAGTGCTA: 6.37 z-score
TTAGGACTGCTTAGCCTTTAGTGCTAG: -0.663 z-score
AAGTGTATATACTATATGCATGTGCTA: 0.00384 z-score
GACGAACTGGGCTATCGAGACGTGCTA: -0.113 z-score
CTCTTTTTGCTTTCTTTTATGTGCTAG: 2.58 z-score
TGGGATTTTTAGTTAGAAAAGTGCTAG: -0.0153 z-score
TTAGGTTTCCTATTCCTTTAGTGCTAG: 1.53 z-score
GACGAACTGGGGCCTGGAGACGTGCTA: -0.239 z-score
CACGGTTTCGGACTGGGGACGTGCTAG: 5.52 z-score
TTCCAATTCTTTTTATGCTTGTGCTAG: 2.08 z-score
GACGAATTGAGTTTCGAGACGTGCTAG: 3.98 z-score
GACGGTTTCGGGTGTCGGGACGTGCTA: 8.78 z-score
TCATGTTTTTCATTATTACTGTGCTAG: 1.32 z-score

Study 5 — technique: protein binding microarray; form: double-stranded DNA, one strand shown; matrix: in vitro; tested at: not given; relative to: not given; reading: higher = stronger binding; quantity: E-score
Target: Histone acetyltransferase KAT6A, both winged helices, GST fusion (KAT6A, Homo sapiens, UniProt Q92794, residues 1-181)
Setting: 8-mer, flanks averaged, mean of 2 arrays, mostly near background
Residues (chain): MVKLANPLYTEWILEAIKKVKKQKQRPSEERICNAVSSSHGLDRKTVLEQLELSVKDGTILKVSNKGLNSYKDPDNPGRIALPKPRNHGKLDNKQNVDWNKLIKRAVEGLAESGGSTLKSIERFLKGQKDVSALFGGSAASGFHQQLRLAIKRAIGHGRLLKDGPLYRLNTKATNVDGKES
ACCTAGGT: -0.136
AATCCCAC: -0.245
CGCAAACA: 0.0157
GGGCAGAA: -0.0939
CGAGTAGA: 0.0145
AGGTGAAA: -0.108
GTAAGCCA: -0.0808
AAGTTCAC: -0.0251
CGAACGGA: 0.191
AATTCTTA: -0.11
CCTCCTTA: -0.175
AAGCAGCC: -0.0531
ATTGACCA: -0.255
GGAGCCTA: -0.111
CTCAGATC: -0.195
ATTAGGGA: -0.178
AATCGTCG: 0.0195
ATGACTGC: -0.0901
AGAGGTTA: -0.0698
ATGCAGCG: 0.124
ATGCAACG: 0.0109
TATGGCAA: -0.00561

A few entries again (study 2):
GCCAUGUGCUUUGCAUCUUUCUUAUUUGAUUCUUUUAAAGAAGUGUAGGGAGGAAAACCUGUCAUUUUUGUUGUUUUGCCAGAAUGAAUGACGAUAACUCCUCCUGUUAA: 2.2
UAUUGUGUGAUACUUGAAAAGAUAAAAGGGACUGCCAGCCCCUAACUGAAAUCUGAAGCUUUUUAUCGCUUAUUUUUCCUCGCCCUGUCUCCUCCCUUCCACCUUUCUCC: 0.401
AAGUGAGGGUAGAACCUUUUGGGACUGGCCUUUGAAGCUCUGGCCAGGGAUGGGGUGGGGGCCAAAAGGACAGAGCCUGGUAUGUCUUCAUAGUCAUUGAGAAUGUGGAG: 0.899
UUACUUCUGAAAUGAAGGGAAAAAAACCACCCCAUCGUUCCCUACUCCUCCCCACCACUUACCCGUUCCCCCUUUACCUAAUCUAGUAGAUUAGCCAUCUUUCAAAUUCA: 0.785
AAAAACAAAAACAAAAAACUUAAACUCCACUUUGUACCUUAGAUUUUAAAACUGGGUAGAAAUGUAAUAUACAUUGGACCACUUUUUUAAGCCUUAAUGAACAGUGUAUA: 0.485
AAACAGGCAGCUCAUAAGAGCCACAGGUCUUUAUGUUGAGUCGCGCACCGAAAAACUAAAAAUAAUGGGCGCUUUGGAGAAGAGUGUGGAGUCAUUCUCAUUGAAUUAUA: 0.532
CUCUUCCAAACCACAUGGGAGACAGUUUCCUUCAUGCCCAAGCCUGAGCUCAGAUCCAGCUUGCAACUAAUCCUUCUAUCAUCUAACAUGCCCUACUUGGAAAGAUCUAA: 0.859
UGCCACCGGCAGGGGGCCUUUGCUUACAGGGUCUGCAUAGGUUGUUAUGGAUUUGUGACUUUGGCAUGCAGAAGACAAGAGAGUGGUUAAGUGGAUCUUAUCAUUACUGU: 0.91
GCCACAUACCCUCAUCUGUGCUGUCAGUGUGUCUCUGGUGGGGCAGACUUUGCACUUACUGCAGUGCACCACUUGCACUUUACUCCCUCCGGCUUCUGAGACAGAGCAAG: 0.552
GCACAAUCAGUGUGAAUAAAUUCACUUCAGAAUCUCAAGUCAAGGCCAGGCACGGCGGCUCACGCCUGUAAUCCCAGCACUUUGGGAGGCCGAGACAGGCGGAUCACCUG: 0.332
UUUGGGGAGUGUGUUUUGUCUGUUCUUCAAUGAAGGAUCAAUCCAGUGUUCUUCAUCAAUGUUAGUUAAUAUCCCAUUGCUUGUGUGGCGCCUUGAGUUGGUGGUAGACU: 6.13
CUGUGGCACCAGCUAGCUGCAGGUGCAGGGGAUGGCGGGAGUGAGGCUGUGUCUGCGGAUGGCUGGGGUCACUUCUCUGCCCAUGGGCUCCCUGCUCCCCCAGUUUUUUU: 0.379
